Assay results pooled from the literature.
Compare with care: the assays were run in different laboratories. Numbers after ± are the reported error.

| SMILES | assay | system | setting | scale | quantity | value |
| --- | --- | --- | --- | --- | --- | --- |
| Clc1ccc(Cl)c(-c2cc(Cl)ccc2Cl)c1 | – | fresh water | 20 °C | – | log K(PDMS-water) | 5.49 ± 0.05 |
| CCC[C@@](N)(CO)CCc1ccc(OCCCCCC(C)C)cc1 | – | dog, male hounds, plasma | oral capsule, 20 mg/kg, median | – | Tmax | 6 h |
| CCS(=O)(=O)Nc1ccc(Oc2ccc(F)cc2F)c(-c2cn(C)c(=O)c3[nH]ccc23)c1 | serious respiratory distress | human, relapsed/refractory AML | oral, dose not given | – | treatment-emergent adverse events | 11% |
| CNc1cc(-c2ccnc(Nc3ccc(N4CCN(C)CC4)c(C(F)(F)F)c3)n2)ccn1 | – | zebrafish embryos | 25 µM, 5 d | – | toxicity | 0% |
| CO[C@H]1C[C@@H]2CC[C@@H](C)[C@@](O)(O2)C(=O)C(=O)N2CCCC[C@H]2C(=O)O[C@H]([C@H](C)C[C@@H]2CC[C@@H](OC(=O)NCCOCCOCCOCCOCCOCCOCCOCCOCCC(=O)N3CCc4cc(Cn5nc(-c6ccc7oc(N)nc7c6)c6c(N)ncnc65)ccc4C3)[C@H](OC)C2)C[C@@H](O)[C@H](C)/C=C(\C)[C@@H](O)[C@@H](OC)C(=O)[C@H](C)C[C@H](C)/C=C/C=C/C=C/1C | phase 1 dose escalation | advanced solid tumour patients | intravenous, 6 mg weekly, any grade | – | deaths due to TEAEs | 0% |
| CC(C)C[C@@H]1NC(=O)CNC(=O)[C@H](CC(N)=O)NC(=O)[C@H](CCCNC(=N)N)NC(=O)[C@H]([C@@H](C)O)NC(=O)[C@@H]2CSSC[C@@H]3NC(=O)[C@H]([C@@H](C)O)NC(=O)CNC(=O)CNC(=O)[C@H](C(C)C)NC(=O)[C@@H]4CSSC[C@H](NC(=O)[C@H]([C@@H](C)O)NC(=O)[C@H](CSSC[C@H](NC(=O)[C@H](C(C)C)NC(=O)[C@@H]5CCCN5C1=O)C(=O)NCC(=O)N[C@@H](CCC(=O)O)C(=O)N[C@@H]([C@@H](C)O)C(=O)N4)NC(=O)CNC(=O)[C@H](CCCCN)NC(=O)[C@H]([C@@H](C)O)NC(=O)[C@H](CC(N)=O)NC3=O)C(=O)N[C@@H](CO)C(=O)N[C@@H](Cc1c[nH]c3ccccc13)C(=O)N1CCC[C@H]1C(=O)N[C@@H](C(C)C)C(=O)N2 | HPLC | ammonium bicarbonate | 180 µM, 7 days, pH 9.0, 25 °C, deamidation stability | – | remaining peptide | 93.9 ± 0.6% |
| COc1cccc2c1CCCC2CCCN1CCN(C2CCCCC2)CC1 (stereo not shown) | – | CD-1 mouse, male, lung | intraperitoneal, 10 mg/kg | – | elimination rate constant | 5.3e-05 s⁻¹ |
| CC(C)[C@H](C(=O)O[C@H](C#N)c1cccc(Oc2ccccc2)c1)c1ccc(Cl)cc1 | measured: CYP2C19 | human, age 1 year | – | – | enzyme contribution to clearance | 2.62% |
| N.N.[Cl][Pt][Cl] | – | nude mouse MCF7 xenograft | 5 mg/kg, day 9 | – | body weight | 14.2 ± 1.19 g |
| C[C@]1(CO)Cc2ncn(-c3ccc(C#N)c(Cl)c3)c2C(=O)O1 | investigator-assessed | human | 40 mg single dose | – | subjects with drug-related TEAEs | 0% |
| Clc1ccc(-c2cc(Cl)c(Cl)cc2Cl)cc1Cl | – | fresh water | 20 °C | – | log K(PDMS-water) | 6.04 ± 0.05 |
| COc1ncccc1-c1cnn2ccc(N3CCN(C(=O)OC(C)C)CC3)nc12 | – | rat, thermal hyperalgesia model, plasma | oral, 0.3 mg/kg, 180 min | – | drug concentration | 37 nM |
| C=C(CN(C(=O)c1c(C(F)F)nn(C)c1F)C1CC1)c1ccc(Cl)cc1Cl | static acute toxicity test | zebrafish (Brachydanio rerio) | 0.482 mg a.i./L, 72 h | – | mortality | 0% |
| O=S(=O)(Nc1ccccc1)c1ccc(NC(=S)Nc2ccccc2)cc1 | measured: TBIL | female mouse, blood | oral, 80 mg/kg daily, 14 days | – | blood chemistry level | 0.85 mg/dL |
| N[C@@H]1c2ccccc2OC12CCN(c1cnc3c(N4CCCc5ncccc54)n[nH]c3n1)CC2 | – | advanced metastatic solid tumour patients | oral, 75 mg once daily | – | TEAE leading to interruption | 71.4% |
| C[C@@H](NC(=O)N1C(=O)[C@H](Cc2ccnc(N)c2)[C@H]1C(=O)O)C1CCCCC1 | – | healthy Chinese adult volunteers | continuous intravenous infusion, dose not given, 5.0 days, CTCAE 5.0, all doses | – | diarrhea | 2.5% |
| C[C@H]1COCCN1c1nc(NCc2cccnc2C(F)(F)F)c2cccnc2n1 | – | conscious rat | intravenous, 30 mg/kg | relative to: control | BP change | -18.2% |
| CC(=O)c1c(C)c2cnc(Nc3ccc(C4CCN(CCS(C)(=O)=O)CC4)cn3)nc2n(C2CCCC2)c1=O | – | human patients, plasma | oral, 100 mg twice daily, day 21 multiple doses, with: fulvestrant | – | AUC(0-t) | 1490 ng·h/mL |
| Clc1cccc(-c2ccccc2)c1 | – | PDMS-water partitioning | PCB compilation | relative to: maximum over minimum K | literature range factor | 1.2 |
| CC(=O)c1c([O-])cc(C)oc1=O.[Na+] | – | male Wistar rat, plasma | oral, 200 mg/kg, no CYP inhibitor | – | volume of distribution | 0.8 ± 0.094 L/kg |

| SMILES | assay | system | setting | scale | quantity | value |
| --- | --- | --- | --- | --- | --- | --- |
| CCN(CCO)CCCC(C)Nc1ccnc2cc(Cl)ccc12 (stereo not shown) | – | newly diagnosed glioblastoma patients | oral, 400 mg/dose, grade 4, with: radiotherapy and temozolomide | – | white cell decrease patients | 14% |
| CC(C)c1nc(N(C)S(C)(=O)=O)nc(-c2ccc(F)cc2)c1/C=C/[C@@H](O)C[C@@H](O)CC(=O)O | – | healthy human subjects | oral, dose not given, study CL-0537 safety set | – | incidence catheter site reaction | 0% |
| CC(C)[C@@H]1CC[C@@H](C)C[C@@H]1O | acute oral toxicity OECD | Swiss albino mice, serum | oral, 300 mg/kg | – | creatinine | 0.94 ± 0.06 mg/dL |
| O=c1c2cc(Cl)ccc2[nH]c(=S)n1Cc1cccnc1 | – | human liver microsomes | 10 µM, 1 h, pH 7.4, with: glutathione | – | parent remaining | ≤ 97.5% |
| CN1CC[C@@H](c2c(O)cc(O)c3c(=O)cc(-c4ccc(C(F)(F)F)cc4Cl)oc23)[C@@H]1CO | measured: Neutropenia | relapsed or refractory haematological malignancies | oral, dose not given, grade 3 to 4, all arms | – | patients with adverse event | 7.5% |
| COc1ccc2c(c[n+](C)c3c4cc5c(cc4ccc23)OCO5)c1OC | LC-MS/MS | rat, plasma | – | – | alpha half-life | 3.27 h |
| O=C1Nc2cc3[nH]nc(-c4ccncc4)c3cc2CN1Cc1ccccc1 | CTCAE v4.03 | advanced solid tumour patients | intravenous, 0.45 mg/kg, schedules 1/2 | – | patients with diarrhoea | 0% |
| CC(C)C[C@@H]1NC(=O)CNC(=O)[C@H](CC(N)=O)NC(=O)[C@H](CCCNC(=N)N)NC(=O)[C@H]([C@@H](C)O)NC(=O)[C@@H]2CSSC[C@@H]3NC(=O)[C@H]([C@@H](C)O)NC(=O)CNC(=O)CNC(=O)[C@H](C(C)C)NC(=O)[C@@H]4CSSC[C@H](NC(=O)[C@H]([C@@H](C)O)NC(=O)[C@H](CSSC[C@H](NC(=O)[C@H](C(C)C)NC(=O)[C@@H]5CCCN5C1=O)C(=O)NCC(=O)N[C@@H](CCC(=O)O)C(=O)N[C@@H]([C@@H](C)O)C(=O)N4)NC(=O)CNC(=O)[C@@H]1CCCN1C(=O)[C@H]([C@@H](C)O)NC(=O)[C@H](CC(N)=O)NC3=O)C(=O)N[C@@H](CO)C(=O)N[C@@H](CCCCN)C(=O)N1CCC[C@H]1C(=O)N[C@@H](C(C)C)C(=O)N2 | HPLC | water | 180 µM, 14 days, 37 °C, deamidation stability | – | remaining peptide | 96.9 ± 0.6% |
| NC(=O)[C@H]1CCN(c2ncnc(N)c2F)C[C@@H]1N1CCC[C@@H](Nc2cc(Cl)cc(C(F)(F)F)c2)C1=O | – | B-cell malignancy patients | oral, 41 mg twice daily, dose | – | grade ≥3 neutropenia | 30% |
| COc1cc2c(Oc3ccc4[nH]c(C)cc4c3F)ccnc2cc1OCC1(N)CC1 | – | paediatric recurrent refractory sarcoma | 12 mg | – | grade 3 Dizzy | 0% |
| CC[C@H](C)[C@H](NC(=O)[C@H](Cc1ccccc1)NC(=O)[C@H](CCC(=O)O)NC(=O)[C@H](CCCNC(=N)N)NC(=O)[C@H](C)NC(=O)[C@H](C)NC(=O)[C@H](CCC(N)=O)NC(=O)[C@H](CCC(=O)O)NC(=O)[C@H](CCC(=O)O)NC(=O)[C@H](CC(C)C)NC(=O)[C@H](Cc1ccc(O)cc1)NC(=O)[C@H](CO)NC(=O)[C@H](CO)NC(=O)[C@@H](NC(=O)[C@H](CC(=O)O)NC(=O)[C@H](CO)NC(=O)[C@@H](NC(=O)[C@H](Cc1ccccc1)NC(=O)[C@@H](NC(=O)CNC(=O)[C@H](CCC(=O)O)NC(=O)[C@H](C)NC(=O)CCc1cnc[nH]1)[C@@H](C)O)[C@@H](C)O)C(C)C)C(=O)N[C@@H](C)C(=O)N[C@@H](Cc1c[nH]c2ccccc12)C(=O)N[C@@H](CC(C)C)C(=O)N[C@H](C(=O)N[C@@H](CCCNC(=N)N)C(=O)NCC(=O)N[C@@H](CCCNC(=N)N)C(=O)N[C@@H](CCCCNC(=O)COCCOCCNC(=O)COCCOCCNC(=O)CC[C@H](NC(=O)CCCCCCCCCCCCCCCCC(=O)O)C(=O)O)C(=O)NCC(=O)NCC(=O)N[C@@H](CO)C(=O)N[C@@H](CCSC)C(=O)N[C@H](C(=O)N[C@@H](CCCCNc1c(NCCCCCN(O)C(=O)CCC(=O)NCCCCCN(O)C(=O)CCC(=O)NCCCCCN(O)C(C)=O)c(=O)c1=O)C(=O)O)C(C)C)C(C)C [zirconium-89 labelled] | ex vivo gamma counting | male Sprague-Dawley rat, blood | intravenous, 1 nmol, 24 h, mean of 3 animals | – | tissue uptake | 0.191 %ID/g |
| [Cl][212Pb][Cl] | – | athymic mice, C4-2 xenograft, stomach | intravenous, 2 h, 212Pb-labelled | – | tissue uptake | 0.39 ± 0.11 %ID/g |
| COc1cc2c(cc1OC)CN(CCc1ccc(NC(=O)c3cccc4c(=O)c5cccc(OC)c5[nH]c34)cc1)CC2 | – | CD-1 mouse, male, lung | intraperitoneal, 10 mg/kg | – | Tmax | 1 h |
| CC(C)(O)c1cc(Nc2cc(Oc3cn(C4CC4)nc3C3CCOCC3)ccn2)ccn1 | Asthenia | advanced cancer patients, dose escalation | oral, dose not given, 2 weeks on/off, all causality grade ≥3 | – | treatment-emergent adverse events | 0% |
| O=C(O)[C@H]1O[C@@H](Oc2cc3oc(-c4ccccc4)cc(=O)c3c(O)c2O)[C@H](O)[C@@H](O)[C@@H]1O | – | Sprague Dawley rat, plasma | oral, 3.34 g lyophilized powder/kg, low dose | – | Vz/F | 5660 ± 3390 L/kg |
| COc1ccc(C[C@@H]2NC(=O)[C@H]([C@@H](C)O)NC(=O)[C@@H]3[C@@H]4CCN3C(=O)[C@@H]3Cc5cn(c6ccc(F)cc56)CCCCCCN(Cc5ccc(cc5)CCNC(=O)[C@]5(C)CCCN5C2=O)C(=O)CCC(=O)N[C@@H](C)C(=O)N[C@H](CNC(=O)CCCCC[N+](C)(C)C)C(=O)N[C@@H](Cc2cccc(c2)CNC(=O)CO4)C(=O)N3)cc1 | measured: Gastroenteritis | humans | concentration not given, Study-001 | – | participants with adverse event | 3.9% |
| CCC[C@H]1CC[C@H](c2ccc(-c3ccc(F)cc3)cc2)CC1 | measured: compound | human pregnant women, male fetuses, cord serum | dose not given, paired maternal-cord samples, mean | – | concentration | 0.91 ng/mL |
| CCOc1cc(Oc2ccc(C(F)(F)F)cc2Cl)ccc1[N+](=O)[O-] | – | rat male | 31.25 mg/kg, 8 days | – | body weight gain | 72.8% |
| Clc1ccc(Cl)c(-c2cc(Cl)c(Cl)cc2Cl)c1 | – | fresh water | 20 °C | – | log K(PDMS-water) | 5.98 ± 0.04 |
| O=C(O)CCCOc1ccc(F)cc1-c1cc(-c2ccccc2C(F)(F)F)n(-c2ccccc2)n1 | – | male Crl:CD(SD) rats, thymus | intravenous, 25 µg/kg, 14 d | – | organ weight | 0.47 ± 0.11 g |

Repeated from above:
| SMILES | assay | system | setting | scale | quantity | value |
| --- | --- | --- | --- | --- | --- | --- |
| CCS(=O)(=O)Nc1ccc(Oc2ccc(F)cc2F)c(-c2cn(C)c(=O)c3[nH]ccc23)c1 | serious respiratory distress | human, relapsed/refractory AML | oral, dose not given | – | treatment-emergent adverse events | 11% |
| O=C(O)[C@H]1O[C@@H](Oc2cc3oc(-c4ccccc4)cc(=O)c3c(O)c2O)[C@H](O)[C@@H](O)[C@@H]1O | – | Sprague Dawley rat, plasma | oral, 3.34 g lyophilized powder/kg, low dose | – | Vz/F | 5660 ± 3390 L/kg |
| [Cl][212Pb][Cl] | – | athymic mice, C4-2 xenograft, stomach | intravenous, 2 h, 212Pb-labelled | – | tissue uptake | 0.39 ± 0.11 %ID/g |
